Results gathered from unrelated publications.
Lines come from different studies, so protocols differ. ± gives the spread as reported. No end group written: not given here.
CHRM1: Muscarinic acetylcholine receptor M1 (CHRM1, Homo sapiens, UniProt P11229)
UniProt P11229, sequence (whole entry, looked up): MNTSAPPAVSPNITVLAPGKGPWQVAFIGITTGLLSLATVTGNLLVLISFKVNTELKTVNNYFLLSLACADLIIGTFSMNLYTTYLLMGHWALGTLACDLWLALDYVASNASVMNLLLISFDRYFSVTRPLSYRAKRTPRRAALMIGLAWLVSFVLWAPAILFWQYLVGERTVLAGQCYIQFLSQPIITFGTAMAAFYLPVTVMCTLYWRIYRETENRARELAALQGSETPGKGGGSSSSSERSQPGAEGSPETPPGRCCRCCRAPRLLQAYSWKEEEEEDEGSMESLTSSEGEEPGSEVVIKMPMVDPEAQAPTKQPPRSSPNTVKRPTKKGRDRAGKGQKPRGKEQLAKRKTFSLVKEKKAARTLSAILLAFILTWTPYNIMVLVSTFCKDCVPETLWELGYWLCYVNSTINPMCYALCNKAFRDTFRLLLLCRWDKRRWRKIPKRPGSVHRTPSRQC
SCN10A: Sodium channel protein type 10 subunit alpha (SCN10A, Homo sapiens, UniProt Q9Y5Y9)
UniProt Q9Y5Y9, sequence (whole entry, looked up): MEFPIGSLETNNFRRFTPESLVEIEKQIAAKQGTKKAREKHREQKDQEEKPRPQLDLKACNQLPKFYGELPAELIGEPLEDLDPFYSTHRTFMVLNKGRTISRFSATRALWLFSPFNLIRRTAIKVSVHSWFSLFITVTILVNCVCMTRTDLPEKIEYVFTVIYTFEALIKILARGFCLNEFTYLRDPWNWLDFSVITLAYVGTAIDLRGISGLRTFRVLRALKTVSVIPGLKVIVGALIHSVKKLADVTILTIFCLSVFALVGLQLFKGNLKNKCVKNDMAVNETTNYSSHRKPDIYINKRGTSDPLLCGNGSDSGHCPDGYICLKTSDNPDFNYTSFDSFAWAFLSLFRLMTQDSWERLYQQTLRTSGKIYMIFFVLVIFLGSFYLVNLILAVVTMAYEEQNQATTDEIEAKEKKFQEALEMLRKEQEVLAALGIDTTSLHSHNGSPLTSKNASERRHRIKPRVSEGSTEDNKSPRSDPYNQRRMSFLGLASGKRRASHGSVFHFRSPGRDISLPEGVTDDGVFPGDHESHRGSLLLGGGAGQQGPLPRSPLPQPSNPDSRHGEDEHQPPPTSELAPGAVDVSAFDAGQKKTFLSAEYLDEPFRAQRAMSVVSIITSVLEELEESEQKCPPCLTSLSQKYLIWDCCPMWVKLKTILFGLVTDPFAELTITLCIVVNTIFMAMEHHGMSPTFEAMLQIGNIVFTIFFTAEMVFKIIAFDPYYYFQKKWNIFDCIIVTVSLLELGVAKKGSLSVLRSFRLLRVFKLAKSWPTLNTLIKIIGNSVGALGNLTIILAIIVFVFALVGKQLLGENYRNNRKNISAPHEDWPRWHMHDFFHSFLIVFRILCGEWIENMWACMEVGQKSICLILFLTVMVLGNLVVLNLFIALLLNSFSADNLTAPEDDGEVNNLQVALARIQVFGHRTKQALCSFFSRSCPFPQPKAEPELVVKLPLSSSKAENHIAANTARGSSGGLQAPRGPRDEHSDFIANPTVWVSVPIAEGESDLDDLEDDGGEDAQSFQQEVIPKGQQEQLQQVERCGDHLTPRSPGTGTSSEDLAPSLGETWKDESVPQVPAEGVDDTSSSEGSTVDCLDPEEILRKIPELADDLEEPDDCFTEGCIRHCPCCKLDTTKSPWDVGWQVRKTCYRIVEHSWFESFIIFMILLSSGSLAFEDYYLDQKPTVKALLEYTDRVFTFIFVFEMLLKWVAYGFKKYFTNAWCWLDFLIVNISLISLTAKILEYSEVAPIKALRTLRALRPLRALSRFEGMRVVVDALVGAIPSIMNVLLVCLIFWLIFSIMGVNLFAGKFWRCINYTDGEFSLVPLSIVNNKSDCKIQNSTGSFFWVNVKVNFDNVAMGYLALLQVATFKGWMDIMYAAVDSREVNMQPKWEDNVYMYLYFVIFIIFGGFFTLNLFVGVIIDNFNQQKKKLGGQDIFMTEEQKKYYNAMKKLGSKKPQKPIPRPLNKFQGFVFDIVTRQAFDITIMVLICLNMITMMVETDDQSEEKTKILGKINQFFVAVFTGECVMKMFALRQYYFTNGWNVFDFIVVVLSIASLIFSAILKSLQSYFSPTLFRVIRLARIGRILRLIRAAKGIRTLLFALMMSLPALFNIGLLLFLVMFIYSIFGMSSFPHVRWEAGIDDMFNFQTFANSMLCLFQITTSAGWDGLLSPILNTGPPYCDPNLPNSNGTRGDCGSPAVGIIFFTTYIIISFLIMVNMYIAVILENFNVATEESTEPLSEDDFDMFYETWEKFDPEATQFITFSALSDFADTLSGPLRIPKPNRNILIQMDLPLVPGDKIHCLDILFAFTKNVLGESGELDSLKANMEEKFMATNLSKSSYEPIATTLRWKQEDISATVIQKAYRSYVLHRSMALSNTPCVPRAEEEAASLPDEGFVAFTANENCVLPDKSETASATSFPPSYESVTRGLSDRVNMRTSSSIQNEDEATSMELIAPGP
CHRM4: Muscarinic acetylcholine receptor M4 (CHRM4, Homo sapiens, UniProt P08173)
UniProt P08173, sequence (whole entry, looked up): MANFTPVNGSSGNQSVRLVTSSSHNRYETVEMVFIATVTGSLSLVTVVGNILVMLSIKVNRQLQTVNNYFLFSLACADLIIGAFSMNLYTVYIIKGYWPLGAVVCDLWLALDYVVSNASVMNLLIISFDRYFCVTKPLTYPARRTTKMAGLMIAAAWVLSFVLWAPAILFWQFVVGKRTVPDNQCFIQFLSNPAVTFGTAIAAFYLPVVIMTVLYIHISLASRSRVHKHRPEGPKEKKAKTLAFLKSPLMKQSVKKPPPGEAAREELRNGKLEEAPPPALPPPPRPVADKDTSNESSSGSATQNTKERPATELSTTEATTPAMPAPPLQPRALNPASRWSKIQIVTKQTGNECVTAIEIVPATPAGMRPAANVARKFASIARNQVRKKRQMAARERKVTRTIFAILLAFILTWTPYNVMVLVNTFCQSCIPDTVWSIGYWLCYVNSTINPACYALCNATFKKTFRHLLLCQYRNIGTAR
Prkar2b S112A holoenzyme with catalytic subunit: cAMP-dependent protein kinase type II-beta regulatory subunit, holoenzyme with catalytic subunit (Prkar2b, Rattus norvegicus, UniProt P12369, S112A)
UniProt P12369, sequence (whole entry, unmodified, looked up): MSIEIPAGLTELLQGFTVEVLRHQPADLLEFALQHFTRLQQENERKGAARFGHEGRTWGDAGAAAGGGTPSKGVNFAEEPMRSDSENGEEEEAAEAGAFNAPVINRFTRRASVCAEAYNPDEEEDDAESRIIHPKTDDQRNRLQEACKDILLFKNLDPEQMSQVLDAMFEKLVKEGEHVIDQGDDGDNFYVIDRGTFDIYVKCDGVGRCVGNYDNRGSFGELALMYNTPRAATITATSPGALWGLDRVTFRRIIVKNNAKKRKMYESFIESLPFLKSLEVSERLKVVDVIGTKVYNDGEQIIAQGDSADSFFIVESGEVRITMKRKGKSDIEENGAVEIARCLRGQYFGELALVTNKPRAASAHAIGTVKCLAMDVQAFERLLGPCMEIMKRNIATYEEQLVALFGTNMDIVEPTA
Grm5: Metabotropic glutamate receptor 5 (Grm5, Rattus norvegicus, UniProt P31424)
UniProt P31424, sequence (whole entry, looked up): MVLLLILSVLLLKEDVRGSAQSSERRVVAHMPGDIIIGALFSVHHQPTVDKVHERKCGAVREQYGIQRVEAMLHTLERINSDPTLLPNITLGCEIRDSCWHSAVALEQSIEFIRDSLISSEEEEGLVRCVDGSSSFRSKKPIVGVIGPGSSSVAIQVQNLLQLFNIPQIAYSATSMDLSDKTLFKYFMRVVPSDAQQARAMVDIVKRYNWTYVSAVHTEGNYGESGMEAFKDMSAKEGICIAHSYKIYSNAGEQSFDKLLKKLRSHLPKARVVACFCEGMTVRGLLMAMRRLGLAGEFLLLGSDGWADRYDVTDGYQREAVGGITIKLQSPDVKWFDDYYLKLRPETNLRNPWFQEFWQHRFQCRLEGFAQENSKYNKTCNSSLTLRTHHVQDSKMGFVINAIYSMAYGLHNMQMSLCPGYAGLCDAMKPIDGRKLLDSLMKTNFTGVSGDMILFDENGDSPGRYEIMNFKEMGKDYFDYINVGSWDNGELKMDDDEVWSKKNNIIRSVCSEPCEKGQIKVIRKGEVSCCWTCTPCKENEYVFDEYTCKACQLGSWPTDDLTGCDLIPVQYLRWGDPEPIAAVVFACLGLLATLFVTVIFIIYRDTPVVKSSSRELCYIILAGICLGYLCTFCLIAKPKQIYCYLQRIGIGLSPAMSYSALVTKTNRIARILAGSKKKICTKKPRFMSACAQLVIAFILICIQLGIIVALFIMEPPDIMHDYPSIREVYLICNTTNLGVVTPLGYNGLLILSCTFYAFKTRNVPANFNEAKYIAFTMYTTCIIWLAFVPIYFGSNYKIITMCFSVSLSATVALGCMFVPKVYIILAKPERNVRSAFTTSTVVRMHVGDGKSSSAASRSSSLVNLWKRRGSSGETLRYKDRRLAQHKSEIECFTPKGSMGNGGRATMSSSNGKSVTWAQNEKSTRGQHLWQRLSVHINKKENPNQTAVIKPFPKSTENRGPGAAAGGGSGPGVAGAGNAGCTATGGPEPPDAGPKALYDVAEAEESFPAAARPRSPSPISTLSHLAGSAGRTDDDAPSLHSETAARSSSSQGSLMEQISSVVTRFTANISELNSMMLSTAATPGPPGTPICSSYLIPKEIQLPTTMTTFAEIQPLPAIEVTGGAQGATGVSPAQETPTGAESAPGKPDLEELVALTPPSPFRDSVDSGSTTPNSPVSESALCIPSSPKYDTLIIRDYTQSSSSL
T1: DNA hairpin, HEG linker; GTTATATCTTGATATAAC
T2: ssRNA, CUG repeat (Homo sapiens); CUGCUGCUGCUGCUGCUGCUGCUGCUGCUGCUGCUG
B1: side-chain stapled; chain GRTKQEARKSTGG (also: sidechain bridge or staple (positions not given here))
UniProt Q8K0E8, sequence (whole entry, looked up): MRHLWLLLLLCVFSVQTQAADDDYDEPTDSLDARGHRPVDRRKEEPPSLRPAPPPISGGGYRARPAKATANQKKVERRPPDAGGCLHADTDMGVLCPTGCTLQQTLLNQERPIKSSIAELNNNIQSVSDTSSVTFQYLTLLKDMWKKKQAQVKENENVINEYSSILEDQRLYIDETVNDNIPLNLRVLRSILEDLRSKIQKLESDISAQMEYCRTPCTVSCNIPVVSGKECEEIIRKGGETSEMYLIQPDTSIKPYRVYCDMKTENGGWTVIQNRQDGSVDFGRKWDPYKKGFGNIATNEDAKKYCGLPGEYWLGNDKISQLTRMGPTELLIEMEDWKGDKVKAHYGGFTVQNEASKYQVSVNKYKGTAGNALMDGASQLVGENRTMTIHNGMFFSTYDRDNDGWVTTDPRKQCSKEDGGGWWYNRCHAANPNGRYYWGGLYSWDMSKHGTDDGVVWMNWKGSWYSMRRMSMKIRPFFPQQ

O=c1cc(-c2ccccc2OCc2ccc([N+](=O)[O-])cc2)ncn1C1CCCCC1O (stereo not shown)  ΔpEC50 of ACh (CHRM1; positive allosteric modulator, IP1 accumulation; CHO-M1 cells; 10 µM, 60 min, 37 °C, added: ACh; relative to: ACh alone, higher = stronger potentiation): 1.52 ± 0.22 log units
NC1=CC(=O)c2ccc(-c3ccccn3)nc2C1=O  kinact (Protein-arginine deiminase type-4 (PADI4, Homo sapiens, UniProt Q9UM07); enzyme activity, inhibitor): 0.002 s⁻¹
C=CC(C)(C)c1cc(-c2oc3cc(O)ccc3c2Cc2cc(-c3cc4cc(C(C)(C)C=C)c(O)cc4oc3=O)c(O)cc2O)c(O)cc1O  concentration doubling activity (quinone reductase; inducer; Hepa1c1c7): 3 µM
Oc1ccc(C2CNCCc3c2cc(O)c(O)c3Cl)cc1 (stereo not shown)  IC50 ratio (Lysine-specific demethylase 4E (KDM4E, Homo sapiens, UniProt B2RXH2); inhibitor, FDH-coupled; relative to: 20 µM over 2.5 µM ferrous ammonium sulfate): 1.3
CCCN1CCN(C(C)C(=O)Nc2c(C)csc2C(=O)OC)CC1 (stereo not shown)  capacity factor k′ (SCN10A; cell membrane chromatography; higher = stronger binding): 55
COc1ccc(C)c2sc(NC(=O)c3ccc(F)cc3F)nc12  activity (CHRM4; calcium mobilization, positive allosteric modulator; CHO expressing hM4 and Gqi5; concentration not given, added: acetylcholine EC20): inactive
CN(C)S(=O)(=O)c1ccc(COc2ccccc2-c2cc(=O)n(C3CCCCC3O)cn2)cc1 (stereo not shown)  ΔpEC50 of ACh (CHRM1; positive allosteric modulator, IP1 accumulation; CHO-M1 cells; 1 µM, 60 min, 37 °C, added: ACh; relative to: ACh alone, higher = stronger potentiation): 0.22 ± 0.09 log units
Clc1cccc(Nc2nnc(-c3ccccc3)c3ccccc23)c1  IC50 (Dual specificity calcium/calmodulin-dependent 3',5'-cyclic nucleotide phosphodiesterase 1A (PDE1A, Homo sapiens, UniProt P54750); cAMP hydrolysis, inhibitor, fluorescence polarization; recombinant enzyme; up to 100 µM, 30 min preincubation, 30 °C, added: fluorescein-cAMP 25 nM): inactive
CC(C)C[C@H](NC(=O)[C@@H]1CSSC[C@H](NC(=O)[C@H](Cc2c[nH]cn2)NC(=O)[C@H](Cc2c[nH]c3ccccc23)NC(=O)[C@H](CCCCNC(=O)CNC(=O)CCC(C(=O)O)N2CCN(CC(=O)O)CCN(CC(=O)O)CC2)NC(=O)CCC(C(=O)O)N2CCN(CC(=O)O)CCN(CC(=O)O)CC2)C(=O)N[C@@H]([C@@H](C)O)C(=O)N[C@@H]([C@@H](C)O)C(=O)N[C@@H](CCCCNC(=O)CNC(=O)CCC(C(=O)O)N2CCN(CC(=O)O)CCN(CC(=O)O)CC2)C(=O)N[C@@H](Cc2ccccc2)C(=O)N2CCC[C@H]2C(=O)N[C@@H](Cc2c[nH]cn2)C(=O)N[C@@H](Cc2c[nH]cn2)C(=O)N[C@@H](Cc2ccc(O)cc2)C(=O)N1)C(=O)N[C@@H](Cc1ccc(O)cc1)C(=O)N[C@@H](Cc1ccc(-c2ccccc2)cc1)C(N)=O (stereo partly shown) [gallium-68 labelled]  lung uptake (Col1a1/Col1a2 (Mus musculus, UniProt P11087+Q01149); ex vivo gamma counting; mouse bleomycin pulmonary fibrosis, lung; dose not given, 150 min post injection, bleomycin 2.5 U/kg, day 14): 0.066 ± 0.008 %ID/lung
O=c1cc(-c2ccccc2OCc2ccc(Br)cc2F)ncn1C1CCCCC1O (stereo not shown)  change in baseline activity (CHRM1; allosteric agonist, IP1 accumulation; CHO-M1 cells; 10 µM, unit not given; relative to: maximum ACh response): 36 ± 2.8
Brc1cccc2cc[nH]c12  conversion (Dehaloperoxidase B, ferric (Amphitrite ornata, UniProt Q9NAV7); substrate, HPLC; 5% methanol; 5 min, pH 7, 25 °C, enzyme 10 µM, added: H2O2 500 µM): 46.1%
Cc1ccc(COc2ccccc2-c2cc(=O)n(C3CCCCC3O)cn2)cn1 (stereo not shown)  change in baseline activity (CHRM1; allosteric agonist, IP1 accumulation; CHO-M1 cells; 10 µM, unit not given; relative to: maximum ACh response): 42.6 ± 3.2
COc1ccc(C)c2sc(NC(=O)Nc3ccncc3)nc12  activity (CHRM4; calcium mobilization, positive allosteric modulator; CHO expressing hM4 and Gqi5; concentration not given, added: acetylcholine EC20): inactive
Nc1ncnc2c1nc(Cl)n2[C@@H]1O[C@@H]2COP(=O)(O)O[C@H]2[C@H]1O  selectivity ratio (Prkar2b S112A holoenzyme with catalytic subunit; PKA holoenzyme activation, activator, fluorescence anisotropy; relative to: RIIβ over RIα, higher = RIIβ-selective): 0.2
B1  methylation conversion (Histone-lysine N-methyltransferase SETD7 (SETD7, Homo sapiens, UniProt Q8WTS6); peptide methylation, substrate, MALDI-TOF MS; 10 µM, 3 h, pH 8.0, 37 °C, enzyme 500 nM, added: SAM 30 µM): ≥ 90%
O=C(Nc1ncnc2c1ncn2[C@@H]1O[C@@H]2COP(=O)(O)OC2C1O)c1ccccc1 (stereo in doubt)  selectivity ratio (Prkar2b S112A holoenzyme with catalytic subunit; PKA holoenzyme activation, activator, fluorescence anisotropy; relative to: RIIβ over RIα, higher = RIIβ-selective): 4.9
Cn1cc(-c2ccc(COc3ccccc3-c3ccn(C4CCCCC4O)c(=O)c3)cn2)cn1 (stereo not shown)  log τB (efficacy) (CHRM1; IP1 accumulation, positive allosteric modulator, operational allosteric model; human cells; pKB fixed to published value, added: acetylcholine): 2.11 ± 0.12
CN1CC(=O)NC1=NC(=O)Nc1cccc(Cl)c1  pKB (Grm5; calcium mobilization, negative allosteric modulator; 30 min, added: glutamate): 7.31 ± 0.08 -log M
CCCn1cc(-c2ccc(COc3ccccc3-c3cc(=O)n(C4CCCCC4O)cn3)cc2)cn1 (stereo not shown)  change in baseline activity (CHRM1; allosteric agonist, IP1 accumulation; CHO-M1 cells; 1 µM, unit not given; relative to: maximum ACh response): 52.6 ± 2.7
CCCCCCCCCCSc1nc2c([nH]1)c(=O)n(C)c(=O)n2C  remaining activity (Progesterone receptor (PGR, Homo sapiens, UniProt P06401); reporter gene, antagonist, MMTV-luciferase; T47D/A1-2; 10 µM, 24 h, added: 5 nM progesterone; relative to: maximal activity): 72%
Cn1cc(-c2ccc(COc3ccccc3-c3cc(=O)n(C4CCCCC4O)cn3)cn2)cn1 (stereo not shown)  ΔpEC50 of ACh (CHRM1; positive allosteric modulator, IP1 accumulation; CHO-M1 cells; 1 µM, 60 min, 37 °C, added: ACh; relative to: ACh alone, higher = stronger potentiation): 1.51 ± 0.15 log units
C[n+]1cc(NC(=O)c2ccc3ccc4ccc(C(=O)Nc5cc6ccccc6[n+](C)c5)nc4c3n2)cc2ccccc21  IC50 (T1, DNA hairpin, HEG linker; Thiazole Orange displacement, competitor, fluorescent indicator displacement; pH 7.2, KCl 100 mM): > 2500 nM
GGSHPSRPRAG (99mTc-labelled)  uptake (Fga/Fgb/Fgg (Mus musculus, UniProt E9PV24+Q8K0E8+Q8VCM7); peptide, heparinized mouse, carotid thrombosis, injured carotid clot; 3 µCi/g, 2 h): 3.4 ± 1.6 %ID/g
N#Cc1c(N2CCCC2)nc(N)c2c(N)nc(N3CCCC3)cc12  Kd (T2, ssRNA, CUG repeat (Homo sapiens); fluorescence anisotropy; NaCl 185 mM, Hill plot): 125 nM
CCc1c(C)n(Cc2ccc(-c3ccccc3C(=O)OC)cc2)c2ccccc12  Emax (Peroxisome proliferator-activated receptor gamma (PPARG, Homo sapiens, UniProt P37231); COS-7; 10 µM, 39 h): 3.16%
CCCCCCO  binding heat capacity change (Major urinary protein 1 (Mup1, Mus musculus, UniProt P11588); isothermal titration calorimetry; concentration not given, pH 7.4, 278-308 K): -553 ± 15 J/(K·mol)
Cn1cc(-c2ccc(COc3ccccc3-c3cc(=O)n(C4CCCCC4O)cn3)c(F)c2)cn1 (stereo not shown)  change in baseline activity (CHRM1; allosteric agonist, IP1 accumulation; CHO-M1 cells; 1 µM, unit not given; relative to: maximum ACh response): 46.8 ± 3.7
COC(=O)c1scc(C)c1NC(=O)C(C)N1CC(C)CC(C)C1 (stereo not shown)  capacity factor k′ (SCN10A; cell membrane chromatography; higher = stronger binding): 43
CCN(c1nc(N)c(C(=O)NC(=N)N)nc1Cl)C(C)C  current change (unc-8 (Caenorhabditis elegans, UniProt Q21974, G387E); ion current, two-electrode voltage clamp; Xenopus oocytes coexpressing MEC-2; 30 µM, -85 mV; relative to: uninjected oocytes, positive = inhibition): 0.61 µA
COc1cc2nc(N(C)CCCNC(=O)C3CCCO3)nc(N)c2cc1OC (stereo not shown)  Hill coefficient (Sodium channel protein type 5 subunit alpha (SCN5A, Homo sapiens, UniProt Q14524); sodium current, inhibitor, IonWorks Quattro): 0.71
CN(c1ccccc1)S(=O)(=O)C1CC2OC1C(c1ccc(O)cc1)=C2c1ccc(O)cc1 (stereo not shown)  efficacy (Estrogen receptor beta (ESR2, Homo sapiens, UniProt Q92731); reporter gene, antagonist; HepG2; added: estradiol 10 nM; relative to: E2 response, negative is inverse agonism): -25 ± 3%
O=S(=O)(O)CCN1CCN(CCO)CC1  Imax (Neuronal acetylcholine receptor; alpha4/beta2, (α4)2(β2)3 stoichiometry (Homo sapiens, UniProt P17787+P43681); ion current, positive allosteric modulator, two-electrode voltage clamp; Xenopus oocytes high-sensitivity; unit not given, added: acetylcholine 10 µM; relative to: acetylcholine alone): 2.7 ± 3.1
COC(=O)c1scc(C)c1NC(=O)C(C)N1CCN(c2ccccc2)CC1 (stereo not shown)  capacity factor k′ (SCN10A; cell membrane chromatography; higher = stronger binding): 45
N#Cc1cnc(Nc2nc3ccccc3o2)nc1-c1ccc(F)cc1  maximal response (Grm5; calcium mobilization, negative allosteric modulator; added: glutamate EC80; relative to: maximal glutamate response): 1.7 ± 0.1%

A few entries again:
Clc1cccc(Nc2nnc(-c3ccccc3)c3ccccc23)c1  IC50 (Dual specificity calcium/calmodulin-dependent 3',5'-cyclic nucleotide phosphodiesterase 1A (PDE1A, Homo sapiens, UniProt P54750); cAMP hydrolysis, inhibitor, fluorescence polarization; recombinant enzyme; up to 100 µM, 30 min preincubation, 30 °C, added: fluorescein-cAMP 25 nM): inactive
COc1ccc(C)c2sc(NC(=O)c3ccc(F)cc3F)nc12  activity (CHRM4; calcium mobilization, positive allosteric modulator; CHO expressing hM4 and Gqi5; concentration not given, added: acetylcholine EC20): inactive
GGSHPSRPRAG (99mTc-labelled)  uptake (Fga/Fgb/Fgg (Mus musculus, UniProt E9PV24+Q8K0E8+Q8VCM7); peptide, heparinized mouse, carotid thrombosis, injured carotid clot; 3 µCi/g, 2 h): 3.4 ± 1.6 %ID/g
